Measurements collected from several papers.
Numbered parts are unrelated; each lists some results of a single study.

Set 1
Target: Ras GTPase-activating protein-binding protein 1, RRM domain (G3BP1, Homo sapiens, UniProt Q13283)
Sequence of UniProt Q13283 (whole entry, looked up): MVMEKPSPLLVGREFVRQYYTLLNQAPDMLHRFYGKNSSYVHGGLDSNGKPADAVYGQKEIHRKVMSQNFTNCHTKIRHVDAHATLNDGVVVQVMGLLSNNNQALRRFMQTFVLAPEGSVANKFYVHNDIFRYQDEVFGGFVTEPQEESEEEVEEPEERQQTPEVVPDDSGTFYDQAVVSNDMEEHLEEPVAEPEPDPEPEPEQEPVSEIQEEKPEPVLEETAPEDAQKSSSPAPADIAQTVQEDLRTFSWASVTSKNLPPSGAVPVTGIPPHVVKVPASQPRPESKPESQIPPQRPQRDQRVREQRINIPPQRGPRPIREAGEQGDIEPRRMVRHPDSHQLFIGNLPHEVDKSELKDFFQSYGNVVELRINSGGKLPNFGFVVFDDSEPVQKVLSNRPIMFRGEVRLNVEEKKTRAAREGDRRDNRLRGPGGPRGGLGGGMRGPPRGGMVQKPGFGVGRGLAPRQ
Technique: RNA Bind-n-Seq
Form: RNA
Medium: in vitro
Tested at: 1 µM
Notes: whole 134-nt RNA, ends assumed
With: 150 mM KCl
Reference: input library
Direction: higher = stronger binding
| Strand | log2 enrichment |
| --- | --- |
| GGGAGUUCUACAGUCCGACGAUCUGUUCUGCAGAGGGGCGGUGUCAUUACUGAUGAAGAGGAAACCUCUAAGAAGAUAGCUGACCAGUUGGACAACAUUGUGGACAUGCGCGAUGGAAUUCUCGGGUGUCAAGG | -0.186 |
| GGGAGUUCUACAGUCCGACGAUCCUCAAGUCCUGUGCUACACAUCGUAUGUACCGAAUCGGGUGGGUGGGGUGGGGAAAGUAUUAUGUUACGCCGUUCGGAUCUGCACUUCCAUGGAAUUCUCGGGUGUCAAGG | -0.33 |
| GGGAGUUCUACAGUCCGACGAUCUCAAGUCCUGUGCUACACAUCGUAUGUACCGAAUCGGAAAGGUGGAAAAAAAGGAAAGUAUUAUGUUACGCCGUUCGGAUCUGCACUUCCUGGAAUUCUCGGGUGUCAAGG | -0.107 |
| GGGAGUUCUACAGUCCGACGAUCCACAGACAACACGCACCCACACAGACACAGAGGGAAGGGGUUGGGAUGGGGACAGGGUGCACAGCAGGGCGGGGUAGGACCCCACCCCCUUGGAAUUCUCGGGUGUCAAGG | -0.342 |
| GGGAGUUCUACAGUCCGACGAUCUAUAUUGAGGUAUAGAGCUAUUCUUUGUAGGUACCCUGGUGAGACCGAUACAAAUAUGCCCCUCCCCAUAAUGGAAUACUAAUUUUUAUUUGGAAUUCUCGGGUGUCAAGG | -0.28 |
| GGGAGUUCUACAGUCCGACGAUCGCAGGAAGUAAAAACAAAUGGAAAUGCUUCGGAUAGUGGCAGGGUUGGGGGUUGCUAAGGAAAGGGUGGGAUGGGAGUGGGUAAAGAGUUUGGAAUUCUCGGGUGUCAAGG | 1.27 |
| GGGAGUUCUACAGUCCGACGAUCAGUCCUGUGCUACACAUCGUAUGUACCGAAUCGGGGCCCCGGCCCCGGGGCCCCGGGAAAGUAUUAUGUUACGCCGUUCGGAUCUGCACUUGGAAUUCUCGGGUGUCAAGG | -1.19 |
| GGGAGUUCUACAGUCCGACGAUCAAGUCCUGUGCUACACAUCGUAUGUACCGAAUCGGUUUUUUUGGAAAAAAAGGAGGAAAGUAUUAUGUUACGCCGUUCGGAUCUGCACUUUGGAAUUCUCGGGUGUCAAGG | -0.333 |
| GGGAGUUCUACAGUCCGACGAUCUCCUGUGCUACACAUCGUAUGUACCGAAUCGGGUUUUUUUGGGUUUUUGGGAAAAAGGGAAAGUAUUAUGUUACGCCGUUCGGAUCUGCAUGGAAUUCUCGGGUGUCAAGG | -0.0331 |

Set 2
Target: Histone acetyltransferase KAT6A, winged helix 1, GST fusion (KAT6A, Homo sapiens, UniProt Q92794, residues 1-85)
Technique: protein binding microarray
Form: double-stranded DNA, one strand shown
Medium: in vitro
Tested at: not given
Notes: 8-mer, flanks averaged, mean of 2 arrays, mostly near background
Reference: not given
Direction: higher = stronger binding
Residues (chain): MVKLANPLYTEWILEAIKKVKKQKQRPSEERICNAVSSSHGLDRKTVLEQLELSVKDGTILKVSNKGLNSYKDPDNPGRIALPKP
| Strand | E-score |
| --- | --- |
| AGCACTCG | -0.00787 |
| GATCTCGC | 0.112 |
| CGGGAGGA | 0.162 |
| AACTATGC | 0.0114 |
| ACCCTGGA | -0.168 |
| CCGGTATA | 0.227 |
| ACCGAAGG | -0.0115 |
| CGGTACAG | 0.196 |
| AACTGGCA | -0.173 |
| CATAACAA | -0.161 |
| CACTGACA | -0.152 |
| ACTAAATA | -0.102 |
| CGCCATGC | 0.188 |
| TGGACCAA | -0.04 |
| AGCATGTC | -0.153 |
| AAAATCGC | 0.093 |
| GTATGCCA | -0.239 |
| GTAGGGAC | 0.123 |

Set 3
Target: Interferon regulatory factor 5, full length, phosphomimetic (IRF5, Homo sapiens, UniProt Q13568-2, residues 1-514, K96S/S451D/S453D/S456D/S462D)
Technique: protein-binding microarray
Form: double-stranded DNA, one strand shown
Medium: in vitro
Tested at: 250 nM
Notes: 60-bp whole probe
With: salmon DNA 0.4 mg/ml
Reference: random background probes
Direction: higher = stronger binding
Shared flanks, not repeated: GCCTAGCAC … GTCTTGATTCGCTTGACGCTGCTG
| Strand | log fluorescence [z-score] |
| --- | --- |
| GCCCCACCCACTCTGGCCCCGTGCTAG | -0.453 |
| GACGATTTCAGTAGCGAGACGTGCTAG | 1.09 |
| GACGATCTCAGACCGGAGACGTGCTAG | -0.282 |
| TTACAACTGAGACTGGATTAGTGCTAG | 0.347 |
| GGCGATTTCAGTATCGAGACGTGCTAG | 3.94 |
| TTAGGTATCGTGTATCGGTTAGTGCTA | 4.33 |
| TTAGATTTCAATTTCGATTAGTGCTAG | 7.64 |
| GACGGTATCGGTATGGGGACGTGCTAG | 5.69 |
| TTAGAAATGGGGACTGGATTAGTGCTA | 0.0298 |
| GGCGGTTTCCTTTCCCTGACGTGCTAG | 1.09 |
| CACGGACTGCTTATCCTGACGTGCTAG | -0.62 |
| GACGGTTTCCTACTGTTGACGTGCTAG | 0.429 |
| TCTGTTGCCCGTATCTAGGTGTGCTAG | 0.15 |
| GAAGGTCTCCTACTGCTGACGTGCTAG | -0.273 |
| TAAGGTTCCCTTTTCCTTTAGTGCTAG | 0.469 |
| GACGGATTGGACTTTCGGGACGTGCTA | 3.98 |
| GACGGTTACCTTTCCCTGACGTGCTAG | 0.426 |
| GGCGGTTTCGACACTGGGGACGTGCTA | 4.61 |
| AAGTTTCTCCTTTCCAAATAGTGCTAG | 3.99 |

Set 4
Target: RING finger protein unkempt homolog, zinc fingers 1-6, GST-SBP tag (UNK, Homo sapiens, UniProt Q9C0B0, residues 30-357)
Technique: RNA Bind-n-Seq
Form: RNA
Medium: in vitro
Tested at: not given
Notes: RNA with constant flanks, ends assumed
Reference: input RNA pool
Direction: higher = stronger binding
Residues (chain): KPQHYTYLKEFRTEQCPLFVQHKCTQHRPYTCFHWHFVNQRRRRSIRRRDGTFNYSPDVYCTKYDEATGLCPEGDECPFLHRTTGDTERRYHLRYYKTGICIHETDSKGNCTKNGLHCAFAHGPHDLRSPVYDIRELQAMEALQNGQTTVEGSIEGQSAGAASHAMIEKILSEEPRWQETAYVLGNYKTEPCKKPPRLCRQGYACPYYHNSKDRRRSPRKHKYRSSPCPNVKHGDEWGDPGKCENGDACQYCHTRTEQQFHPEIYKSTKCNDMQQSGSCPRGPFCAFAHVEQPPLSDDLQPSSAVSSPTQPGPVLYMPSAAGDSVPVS
| Strand | bound/input enrichment |
| --- | --- |
| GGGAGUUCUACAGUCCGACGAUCCCAUCGUCAACUCACACCAUUCCAUUCUAUCCCAACCCCUUGCACCCUAGGCCAUUUCCCCGCUCCCGCCUUCCUCCAGGAAUUAUCGGGGGUGAAUAUGACCAAAGACCAACACUUCCCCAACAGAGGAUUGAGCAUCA | 0.283 ratio |
| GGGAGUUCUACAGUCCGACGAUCGAAGAAGCCCAUAAACUACCAGUAAAACACUUUACUAAUCCAUAUUGUAACAUCUACUUGAACCGCGUCCAAGUAGCAAAAACUCAUGCAAGGGAGGGGCAAAACCCAGUAUGGUCAGAGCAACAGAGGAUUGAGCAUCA | 0.301 ratio |
| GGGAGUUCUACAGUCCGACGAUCAGUGAAAGACUCUUUUAUUAUAUUGCUGUCUCUUUGUUACCCCAUGAGACUUUGCCCGAGAUUGAAAAUGCAGUGGAGAGCGGCCGGGCACUGCUACCCAUUCUCCAGUGGCACAAGCACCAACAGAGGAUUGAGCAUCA | 0.612 ratio |
| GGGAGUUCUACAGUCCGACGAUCUAUCCAACUUUCUUUCCACGUUUUGAAUUCCAAGAUGUUAUCCCUCCAGAUGACUUUCUAACCCGUGAUGAAGAAGUAGAUUCCGUUUUAUUUGGAAGUUUGAGAGGUCAUGUGGUUGGACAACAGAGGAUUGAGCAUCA | 0.378 ratio |
| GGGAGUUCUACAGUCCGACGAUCGGAGACAACAAACAAACCACUGUGUCGAACUCCCAGCAGGCUUACCAGGAAGCAUUUGAAAUCCGUAAGAAAGAAAUGCAGCCUACACACCCAAUUCGUCUUGGUCUGGCACUAAAUUUCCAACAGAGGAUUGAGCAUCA | 0.177 ratio |
| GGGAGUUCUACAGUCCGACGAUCCUGAAAUCUGUGGAGAGCACAUCUCCAGAGCCAUCAAAGAUCAUGUUGGUAGAGCCCCCAGCCGCAAAAGUGUUAGAGCCUUCAGAAACCCUUGUGGUAUCAUCAGAGACACCUACUGAGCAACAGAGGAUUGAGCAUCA | 0.0616 ratio |
| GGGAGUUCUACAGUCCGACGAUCAUUAAUGCCCUUACUCUAUUUGAGAUUAUCUAUGACAAUCUCAGAGCAGAAGUGUUUAACUACCGAGAAUUCAAUAAAGGUUCCCUUUUUUACUUAUGCACUACAUCUGGAGUGUGUGUUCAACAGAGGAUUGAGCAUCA | 0.138 ratio |
| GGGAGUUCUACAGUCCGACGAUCAAAGGUUUCCUGCUACAGGAGGGGAGAAAGCUGUGCAGUCUCUUGGGAAAGGACUUUUCCCUCCGAGUGGGCCUCGGGGCUGCACUCCAGAGUUGUGGCAAUCUGCCUAAGUUUCCAAACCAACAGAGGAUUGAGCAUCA | 0.108 ratio |

Some of these lines once more (set 4):
| Strand | bound/input enrichment |
| --- | --- |
| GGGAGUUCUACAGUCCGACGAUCCUGAAAUCUGUGGAGAGCACAUCUCCAGAGCCAUCAAAGAUCAUGUUGGUAGAGCCCCCAGCCGCAAAAGUGUUAGAGCCUUCAGAAACCCUUGUGGUAUCAUCAGAGACACCUACUGAGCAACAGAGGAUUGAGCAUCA | 0.0616 ratio |
| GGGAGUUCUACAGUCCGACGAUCAUUAAUGCCCUUACUCUAUUUGAGAUUAUCUAUGACAAUCUCAGAGCAGAAGUGUUUAACUACCGAGAAUUCAAUAAAGGUUCCCUUUUUUACUUAUGCACUACAUCUGGAGUGUGUGUUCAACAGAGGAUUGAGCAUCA | 0.138 ratio |
| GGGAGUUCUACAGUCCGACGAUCAAAGGUUUCCUGCUACAGGAGGGGAGAAAGCUGUGCAGUCUCUUGGGAAAGGACUUUUCCCUCCGAGUGGGCCUCGGGGCUGCACUCCAGAGUUGUGGCAAUCUGCCUAAGUUUCCAAACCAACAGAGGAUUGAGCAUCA | 0.108 ratio |
